Measurements from different studies.
Parts stem from different laboratories: compare values within a part only. Substitutions count along the parent as printed.

Block 1
Target: CCNA2, cyclin fold, Cln2 fusion (human)
Technique: yeast growth competition, sequencing
Medium: yeast
Setting: strong parent motif
Baseline: not given
Direction: higher = stronger binding
Parent: E2F2 docking peptide (human); LPAKRKLDLEGIG; partner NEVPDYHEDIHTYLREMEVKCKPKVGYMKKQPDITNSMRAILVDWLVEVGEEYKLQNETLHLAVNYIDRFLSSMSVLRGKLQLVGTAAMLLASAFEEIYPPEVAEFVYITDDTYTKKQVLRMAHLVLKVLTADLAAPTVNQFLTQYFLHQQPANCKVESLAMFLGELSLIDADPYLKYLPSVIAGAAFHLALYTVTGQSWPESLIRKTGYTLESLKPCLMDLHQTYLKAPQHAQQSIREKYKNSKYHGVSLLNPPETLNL
Variant	normalised enrichment score
LPAKKKLDFEGIG [R5K L9F]	5.75
LPAKRKLDLEGIA [G13A]	5.03
LPAKRKLDLEAIG [G11A]	2.99
LPAKRALDLEGIG [K6A]	1.88
LPAKRKLALEGIG [D8A]	2.29
LPAKRKLDLAGIG [E10A]	3.26
APAKRKLDLEGIG [L1A]	3.58

Block 2
Target: Protein max, full length (MAX, Homo sapiens, UniProt P61244-2, residues 1-151)
Technique: protein-binding microarray
Form: double-stranded DNA, one strand shown
Medium: in vitro
Concentration: not given
Setting: k-mer, scored over probes, only values ≥0.25
Direction: higher = stronger binding
Oligonucleotide	E-score
GCACGCCA	0.357
GTGTGATA	0.252
AGCACACG	0.379
AGCAGGTG	0.407
CCCCGCCG	0.281
ACGAGGCG	0.34
AGCGCACG	0.383
AGGCATGG	0.376
ATGTGAGC	0.319
GCGAGCAC	0.305
TACACGCA	0.286
ACACCTGG	0.358
AACACACG	0.355
ATATGGCA	0.265
CACAAGGA	0.286
CACGAGTG	0.416
CAGCGTGC	0.453

Block 3
Target: Prothrombin, mature alpha-thrombin (F2, Homo sapiens, UniProt P00734)
Technique: aptamer microarray, sandwich
Form: DNA with 2'F-ANA
Medium: in vitro
Concentration: 200 nM
Setting: whole 15-mer aptamer, many near background
Added: Cy3 exosite-II aptamer, 400 nM
Direction: higher = stronger binding
Oligonucleotide: GGTTGGTGTGGTTGG
Modification	mean fluorescence intensity [a.u.]
2'F-ANA at 1 2 3 7 9 11 12 13 15	277
2'F-ANA at 2 3 5 6 7 8 9 12 15	207
2'F-ANA at 4 7 8 9 10 11 13 14 15	84
2'F-ANA at 1 2 3 5 6 7 8 9 11 12	124
2'F-ANA at 1 5 6 7 8 9 12 13 15	93.2
2'F-ANA at 1 3 4 5 6 8 10 12	56
2'F-ANA at 2 4 6 9 10 13 14 15	58.5
2'F-ANA at 1 2 3 5 9 11 15	55.8
2'F-ANA at 2 3 4 6 8 13 14	261
2'F-ANA at 4 5 6 7 9 10 12	52.3
2'F-ANA at 3 5 6 10 13 14	46.4
2'F-ANA at 1 3 5 7 8 13 14 15	45.8
2'F-ANA at 2 3 5 6 7 9 10 11 12 15	66
2'F-ANA at 2 4 5 6 7 8 9 10 12 13 14 15	50.4
2'F-ANA at 4 8 9 12 13	411
2'F-ANA at 1 2 5 6 8 9 14	43.2
2'F-ANA at 1 6 8 9 10 12 13 14	51.7
2'F-ANA at 5 7 8 10 11 12 14 15	57
2'F-ANA at 1 2 3 4 5 11 13	47.8
2'F-ANA at 1 2 3 6 9 11 12	274
2'F-ANA at 1 2 4 7 8 9 14	55.1

Block 4
Target: Histone acetyltransferase KAT6A, winged helix 1, GST fusion (KAT6A, Homo sapiens, UniProt Q92794, residues 1-85)
Technique: protein binding microarray
Form: double-stranded DNA, one strand shown
Medium: in vitro
Concentration: not given
Setting: 8-mer, flanks averaged, mean of 2 arrays, mostly near background
Baseline: not given
Direction: higher = stronger binding
Residues (chain): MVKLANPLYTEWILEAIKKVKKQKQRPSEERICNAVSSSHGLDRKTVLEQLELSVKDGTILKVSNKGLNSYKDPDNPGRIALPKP
Oligonucleotide	E-score
AGGAACAA	-0.182
AATAAGTC	-0.169
TCATCAAA	-0.0496
CGTCGTGA	0.128
CACTGATG	-0.148
GAGGCAGC	0.00679
CCAGAACC	-0.151
AAGGACGC	0.142
CAAGGTTC	-0.0288
AATACCCT	0.0284
TGCACCCA	-0.153
AGCGCGGC	0.442
ATTCGTGG	-0.231
CACGTAAA	-0.168
CAGAGGAC	-0.112
CCTGGTCC	-0.128
AGAGCTGG	-0.208
CAGTAGCC	0.0645
CCACACCC	-0.101
ATACAGCG	0.135
ACCAGCCC	0.0499
AACTCGAG	-0.24
AAAAAGAG	-0.233
CGAAGAAG	-0.151
TAAGCTTA	-0.124

Block 5
Target: Interferon regulatory factor 7, full length, phosphomimetic (IRF7, Homo sapiens, UniProt Q92985, residues 1-503, S471D/S472D/S475D/S476D/S477D/S483D/S484D/S487D)
Technique: protein-binding microarray
Form: double-stranded DNA, one strand shown
Medium: in vitro
Concentration: 2200 nM top
Setting: 60-bp whole probe
Added: salmon DNA 0.4 mg/ml
Baseline: random background probes
Direction: higher = stronger binding
Constant ends, left off below: GCCTAGCAC … GTCTTGATTCGCTTGACGCTGCTG
Construct (chain): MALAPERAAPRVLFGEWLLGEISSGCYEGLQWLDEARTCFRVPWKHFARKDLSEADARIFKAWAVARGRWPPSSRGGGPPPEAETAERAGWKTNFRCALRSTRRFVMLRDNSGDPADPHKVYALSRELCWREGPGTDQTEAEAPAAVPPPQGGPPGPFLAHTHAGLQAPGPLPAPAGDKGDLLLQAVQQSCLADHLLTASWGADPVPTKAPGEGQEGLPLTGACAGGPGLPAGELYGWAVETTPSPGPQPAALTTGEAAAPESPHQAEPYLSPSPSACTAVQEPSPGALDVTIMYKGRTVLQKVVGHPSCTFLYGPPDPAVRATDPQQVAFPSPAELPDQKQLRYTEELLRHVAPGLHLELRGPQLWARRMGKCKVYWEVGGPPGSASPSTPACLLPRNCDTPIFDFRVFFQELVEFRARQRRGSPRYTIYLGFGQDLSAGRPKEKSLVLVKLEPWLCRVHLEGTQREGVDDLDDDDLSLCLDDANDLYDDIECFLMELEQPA
Oligonucleotide	fitted relative affinity [z-score]
TTAGGTACCCTACTGCTTTAGTGCTAG	0.484
TTAGGTATCGACTTTTGGTTAGTGCTA	0.691
TTAGGACAGGGTCTCGGTTAGTGCTAG	-0.406
TTAGGTTTCTACTATCGGTTAGTGCTA	1.59
TCAGTTACCCACCTCAGACTGTGCTAG	1.26
TTAGAACTGAGTCTGGATTAGTGCTAG	-0.421
AGTGTTTGCCCTATTTAAGAGTGCTAG	0.906
TTCGGTTTCCTTTCCCTTTAGTGCTAG	7.58
GTGAGAAATAAGTTTCTTTTGTGCTAG	0.107
GACGAACTGAGTATCAAGACGTGCTAG	-0.434
GACGGACTGGGGACTGGGGTCGTGCTA	-0.632
TTAGATTTCGGGTTTCGATTAGTGCTA	6.13
TCATATTTAAGGCCTATGACTGTGCTA	-0.00898
TCATCTACAGGGTTTCACACTGTGCTA	0.925
TAAGGACTGCTTTTCCTTTAGTGCTAG	1.5

Block 6
Target: Sal-like protein 4, full length isoform A (SALL4, Homo sapiens, UniProt Q9UJQ4, residues 1-1053)
Sequence of UniProt Q9UJQ4 (whole entry, looked up): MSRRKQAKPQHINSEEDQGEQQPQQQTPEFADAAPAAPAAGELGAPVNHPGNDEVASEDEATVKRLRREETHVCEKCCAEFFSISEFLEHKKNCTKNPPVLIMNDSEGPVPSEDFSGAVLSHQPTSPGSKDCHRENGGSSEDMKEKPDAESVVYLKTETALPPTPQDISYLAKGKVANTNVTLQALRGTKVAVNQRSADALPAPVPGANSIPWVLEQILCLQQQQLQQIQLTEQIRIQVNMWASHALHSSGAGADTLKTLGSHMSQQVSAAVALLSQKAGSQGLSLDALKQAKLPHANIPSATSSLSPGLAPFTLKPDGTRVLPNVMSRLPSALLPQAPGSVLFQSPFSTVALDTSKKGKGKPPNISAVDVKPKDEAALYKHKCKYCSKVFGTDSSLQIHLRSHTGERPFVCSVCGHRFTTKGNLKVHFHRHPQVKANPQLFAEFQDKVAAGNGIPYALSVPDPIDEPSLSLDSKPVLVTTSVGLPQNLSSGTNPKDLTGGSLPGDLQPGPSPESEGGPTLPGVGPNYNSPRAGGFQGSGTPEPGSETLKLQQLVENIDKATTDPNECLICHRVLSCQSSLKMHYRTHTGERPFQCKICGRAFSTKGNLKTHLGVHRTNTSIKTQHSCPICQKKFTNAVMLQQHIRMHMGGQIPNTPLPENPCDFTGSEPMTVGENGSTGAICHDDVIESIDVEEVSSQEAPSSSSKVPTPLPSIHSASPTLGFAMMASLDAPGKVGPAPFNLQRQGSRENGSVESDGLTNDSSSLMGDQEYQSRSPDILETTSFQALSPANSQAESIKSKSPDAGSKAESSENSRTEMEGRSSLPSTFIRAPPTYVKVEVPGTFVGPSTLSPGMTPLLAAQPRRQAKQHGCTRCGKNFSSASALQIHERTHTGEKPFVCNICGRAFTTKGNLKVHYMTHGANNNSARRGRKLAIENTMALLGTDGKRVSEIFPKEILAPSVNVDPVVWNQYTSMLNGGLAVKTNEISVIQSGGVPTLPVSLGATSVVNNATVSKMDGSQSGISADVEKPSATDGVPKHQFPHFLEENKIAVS
Technique: universal PBM
Form: double-stranded DNA, one strand shown
Medium: in vitro
Concentration: 600 nM
Setting: 8-mer, flanks averaged, mean of replicates
Direction: higher = stronger binding
Oligonucleotide	E-score
CGACAATA	0.217
AACATCAC	0.167
GTCACTTA	0.149
AGGCCCTA	-0.21
GCGACTGA	-0.229
CGAAGCTA	0.0346
ACTCATCT	0.152
GCGAAGTA	0.0328
ATAAACCC	0.162
GTGCAGAA	0.106
AAAAGCGC	0.157
GATTAAAA	0.353
GTCAGTCA	-0.00732
AGGCGATA	0.0416
ACTTTACC	0.162
CAATAGGG	-0.074
CATACAAA	0.305
ACAGGGCG	-0.11
AGACGTGG	-0.184
AGTGGAAC	0.0567
ACCCCGTA	-0.0503
ATGCTCTG	-0.0741
GCGACGCA	-0.216
AGGTTCGC	-0.22
AATCTCTG	0.0506

Block 7
Target: RNA binding protein fox-1 homolog 2, RRM domain, GST-SBP tag (RBFOX2, Homo sapiens, UniProt O43251-10, residues 100-194)
Technique: RNA Bind-n-Seq
Form: RNA
Medium: in vitro
Concentration: 365 nM
Setting: natural RNA segment, single round, ends assumed
Baseline: no-protein control
Direction: higher = stronger binding
Constant ends, left off below: GGGAGUUCUACAGUCCGACGAUC … UGGAAUUCUCGGGUGCCAA
Residues (chain): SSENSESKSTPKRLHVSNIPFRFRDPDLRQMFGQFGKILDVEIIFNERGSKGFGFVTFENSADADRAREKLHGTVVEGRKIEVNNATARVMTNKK
Oligonucleotide	RBNS enrichment (R)
AUAGAGGUUCCAGUUUACAAACUCAAGUGAACAGUAAUCUUUGGAAGCUGCCAGUCUAAAUUCUAAAUAGUGUAUCUGAAAUCUCAGUUCCCAAAAUAGUUGUCAGGUUU	0.303
CCACUGCCCCAGUCUUGGCCAGAGAUACCCCUCCUGCCUGACUGGAAGCUGCACAUCUGCCCACUGAGCUUUGGUGAAAGGUCCAGAGGCUUUGGGGACCUCUGUUCCUG	0.325
AAUAAAGCAAAAUAACCUACUAUCAAAAUAGAAAUGUUGCUAUCUUUAUAAGUGCAAUUUAAUUUGUAAAUAGAGUUUGAAUCAAAGUAUCACAAAAUACUGCUUCAAGA	0.412
AGGCUCUGCUGUCCUCUUAAGCCUCCUUACUCUCCUUGGGCUCAUCGACUAUCGGUUCUGUGCCUGUGCUCUGUUGUGUUGGAGGGAAGGACUGGUAGUUCUGAUUUUUA	2.81
CUCCAAGCUCCAUCUGCAAAGGAAGGAGGUCUUCCUAGCUGAGCCGACUGUACAUCUGCAGUCCCUCACUCAGGAGAUGGGAGCAGGAGGAUCAGGAGUUCAAGGUCAUC	0.299
UGGUUCUUAUGGCAUCUAAAUUACUGAAUAAAUUAUUAAUCCAUUAAUCAGUGAAUCAAAUUAUGAUUACAAUUAUCAAAUGAAUGCUCAGCAUUAAUUGAAAACUGUUU	0.365
ACUUUUUCCACGGGGUCCUUUUAUCACAAAAUUAAACAAUUAUGAAACAUUCUGUCCACAAAGACUAUUUUAAGGCAUAUUCAACUGGUAUUUCAUUUAUUCUUAUGGAC	0.596
UUGAGGGACGCACUGUGAAGAAUGAGAAGGGAAAAGCAAGAUUAUCCUUGUGAAAUUCUGCUGAUUGUGCCCUACCCUUUGCACCUGACUUUUCCUAGUUGUCCUGGUGC	1.12
AUUGAAGCAGUAGAAAGCGAAAAGGCUGGGCACCAGGCUUCAAUCUCUGAGAAUCUAAACUCUUACCAAAUCUGUGUAUUUUUCUUAAAGGAUGGAAUUCUUUAUGAAGU	0.518
CAGGCUUCUUGCUAGGUUGUGUGACCUAUAUGUGUGUCUUCUCUGGUCUGGCCCCUCUUCAAGCCAUAUGUCUUAGAGGCCCUCAUAGUGCUCUCCCCUAAGUUGGGUGC	0.254
AGCCAUUGAAAGCUCAUUACCAGUAGGACAUAAUUUUUGGCUCUCCCUAUUCACAACCAGUGCACAGUUUGACACAGUGGCCUCAGGUUCACAGUGCACCAUGUCACUGU	0.236
ACGCUCUGGGAGGGGUACUGGGUACCCCACCCUUCACUGAGGCCUUUGGAUUUGUCUCAGUGCCUUAGCAUCUGAAAACCUGUGCUUGUAUAUGUGUGUGUAUGUGUAGG	0.925

Some of these lines once more (block 3):
Modification	mean fluorescence intensity [a.u.]
2'F-ANA at 1 3 4 5 6 8 10 12	56
2'F-ANA at 1 2 4 7 8 9 14	55.1
2'F-ANA at 1 3 5 7 8 13 14 15	45.8
2'F-ANA at 4 7 8 9 10 11 13 14 15	84
2'F-ANA at 2 4 5 6 7 8 9 10 12 13 14 15	50.4
2'F-ANA at 1 2 3 7 9 11 12 13 15	277
2'F-ANA at 2 4 6 9 10 13 14 15	58.5
2'F-ANA at 1 5 6 7 8 9 12 13 15	93.2
2'F-ANA at 2 3 5 6 7 8 9 12 15	207
2'F-ANA at 1 2 3 5 9 11 15	55.8
2'F-ANA at 2 3 4 6 8 13 14	261
2'F-ANA at 5 7 8 10 11 12 14 15	57
2'F-ANA at 1 2 3 5 6 7 8 9 11 12	124
2'F-ANA at 1 6 8 9 10 12 13 14	51.7
2'F-ANA at 1 2 5 6 8 9 14	43.2
2'F-ANA at 4 5 6 7 9 10 12	52.3
2'F-ANA at 3 5 6 10 13 14	46.4
2'F-ANA at 4 8 9 12 13	411
2'F-ANA at 1 2 3 4 5 11 13	47.8
